Measured values gathered from unrelated publications.
Numbered parts are unrelated; each lists some results of a single study.

Series 1 — technique: RNA Bind-n-Seq; form: RNA; medium: in vitro; tested at: 365 nM; baseline: no-protein control; direction: higher = stronger binding
Target: RNA binding protein fox-1 homolog 2, RRM domain, GST-SBP tag (RBFOX2, Homo sapiens, UniProt O43251-10, residues 100-194)
Notes: natural RNA segment, single round, ends assumed
Construct (chain): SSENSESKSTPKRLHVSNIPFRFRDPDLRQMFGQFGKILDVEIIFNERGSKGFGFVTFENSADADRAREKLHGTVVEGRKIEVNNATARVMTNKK
`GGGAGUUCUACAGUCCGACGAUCAGAAGUGUUCCAUCCUGAGCGAUUUCUGGACAGCAGUGGAUAUUUUGCCAAGAAGGAAGCUUUGGUUCCUUUUUCCCUAGGAAGAAGACAUUGUCUUGGAGAACACUUGGUGGAAUUCUCGGGUGCCAA` — result for “RBNS enrichment (R)”: 0.386.
Under “RBNS enrichment (R)”, `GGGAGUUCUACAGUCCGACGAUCUGACAAGAUUUUCUUGGAUUUUUUUUUUAUACGAAAAUCAAAAUUUCAAUCAGUCUCGUGCUCUGUCCCUUUACAUCGGUAUGCGACUAUUACAAUCACUGUGUGUGUGUUGGAAUUCUCGGGUGCCAA` is recorded as 0.24.
`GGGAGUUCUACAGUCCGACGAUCCUGUUUUCUGGCAGGUGCCCUCCUUGGAAACUGGUUUUGGCUCUGAUCAGCGGUUCUUUUUGCAGCAAAGCCUGCAUCUGUGUUGACUUGCAAGAUUUUGCGUUUAUUCAUGGAAUUCUCGGGUGCCAA`: “RBNS enrichment (R)” 0.47.
Under “RBNS enrichment (R)”, `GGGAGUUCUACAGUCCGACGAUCUGAAUGCAUGGCAUGAUACAACUAAUUUAAGAGUCUUUUAUAAAUAAAGUUUGCAUUAACUAUACCUACUCCCAAGAUGCUCCAUAUCAUGGAGUGUUGGGCAGCAAUUUUGGAAUUCUCGGGUGCCAA` is recorded as 17.2.
Under “RBNS enrichment (R)”, `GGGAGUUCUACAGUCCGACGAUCUGGCCAAGGGUAGUUUUCAGCUCAAUUUAUAGAAUAGUCCAAAGAGACUUUGAGAAACAUGGUGAUAGGCAGGGGCCUUUCCUACCAUGUUUCAAUACCUACAAACCUAUUGGAAUUCUCGGGUGCCAA` is recorded as 0.484.
For `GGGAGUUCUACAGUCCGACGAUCAGGGGCUUUGGAAAGAGUAGGAGGGGUGGGCUGGAUCGGAAGCAACACCCAUUUGGGGUUACCAUGUCCAUCCCCCAAGGGGGGCCCUGCCCCUCGAGUCGAUGGUGUCCUGGAAUUCUCGGGUGCCAA`, “RBNS enrichment (R)” read 0.365.
Under “RBNS enrichment (R)”, `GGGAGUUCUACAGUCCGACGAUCUUAGAUCAUUGAAAGGUUAACUAACAUGAGAAUUUCAGAGCAAAUUCCAAUACUCUUUUAAAAAGCGUGUCUGCCCUCUCUUACUUCUAUGUAUUUGUUUAUCGACACACUGGAAUUCUCGGGUGCCAA` is recorded as 0.263.
`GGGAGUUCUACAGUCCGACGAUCAUGAUAAAACUCGGCCCCUGGUGAAUGACUCCCUCCCGGGUGCUCACUACCUGGGACUCUCUGCGAUGUACAUAAUAUUUAAUGCGGUUCCGGCAGCAGCCUUCUCUGGAUGGAAUUCUCGGGUGCCAA` — result for “RBNS enrichment (R)”: 1.11.

Series 2 — technique: RNA Bind-n-Seq; form: RNA; medium: in vitro; tested at: not given; baseline: input RNA pool; direction: higher = stronger binding
Target: RING finger protein unkempt homolog, zinc fingers 1-6, GST-SBP tag (UNK, Homo sapiens, UniProt Q9C0B0, residues 30-357)
Sequence of UniProt Q9C0B0 (30-357, looked up): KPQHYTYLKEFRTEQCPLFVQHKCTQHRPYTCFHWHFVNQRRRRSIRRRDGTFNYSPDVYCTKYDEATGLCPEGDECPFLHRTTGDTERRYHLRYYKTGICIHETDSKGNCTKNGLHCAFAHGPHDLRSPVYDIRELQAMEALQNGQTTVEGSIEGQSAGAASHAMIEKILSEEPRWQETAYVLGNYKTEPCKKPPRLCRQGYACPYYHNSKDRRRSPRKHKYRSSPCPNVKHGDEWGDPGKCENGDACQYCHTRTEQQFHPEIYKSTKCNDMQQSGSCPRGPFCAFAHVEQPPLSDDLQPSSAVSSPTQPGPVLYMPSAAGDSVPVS
Notes: RNA with constant flanks, human and mouse sites, ends assumed
`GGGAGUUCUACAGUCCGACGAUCGUUAAGAUGAAGAUGAAGUACUACAUCGAGUACAUGGAGAGCACCCGCGAUGACAGUCCCCUUUACAUCUUCGAUAGCAGCUAUGGCGAACACCCCAAAAGAAGGAAACUUUUGGAAGACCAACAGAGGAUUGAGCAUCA` gave a bound/input enrichment of 0.267 ratio.
With `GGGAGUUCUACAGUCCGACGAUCUAUUAACUGGGUGUUCUGACCACGAGGGACUCCUGGCAUCCACGAUUGUUCUGAUUCGCCAAUAGCCUUCUCUUGUCUACAGCUGCCAAUGCCAAGAGUCCCUAGCCUGCCUUCCUCACCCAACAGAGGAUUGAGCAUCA` the bound/input enrichment was 0.309 ratio.
`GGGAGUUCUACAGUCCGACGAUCAGCCUGUGUGUAAAAUCCAGCUUGACUGCACCCCCCCUUUUUUGUUUCACUGUUUUCUAGUUUAGAAAUCUCAGAACUAACUAAUUUUACAGAACUUUUCUUAAUUUGCUCAUCAUGUUUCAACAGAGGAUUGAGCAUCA` gave a bound/input enrichment of 2.12 ratio.
`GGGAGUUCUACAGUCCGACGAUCGAAGUCAGGAAAAAGUGUGCUGAGGAGGCCCAGCUGAUUUCUUCCCUGAAAGCAGAAAUAACUAGUCAAGAAUCUCAGAUCUCCAGUUAUGAGGAAGAACUGUUGAAAGCUAGAGAAGAACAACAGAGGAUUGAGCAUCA` gave a bound/input enrichment of 0.546 ratio.
`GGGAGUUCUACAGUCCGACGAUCGCUCCACAGUUAGGAGGUAGCUUUGCAGUUUGGGGAGGGCUGUUUUCCAUGAUUGACUGUAGUAUGGUUCAAGUCAGAGGAAAGGAAGAUCCCUGGAACUCCAUCACAAGUGGUGCCUUACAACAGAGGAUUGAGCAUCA` gave a bound/input enrichment of 0.217 ratio.
`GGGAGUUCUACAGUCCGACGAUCGUCAUUCAGAUGGACUUCUCUGCAGAUAGCAGACAUCUCCAGGUUUCUAGUGGCUGCUAUAAACGGCAUGUCUAUGAAGUGCCUUCAGGAAAACACCUUGUGGAUCAUGCUGCCAUUGACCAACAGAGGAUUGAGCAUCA` has a bound/input enrichment of 0.199 ratio.
`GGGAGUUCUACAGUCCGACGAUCAUAUAGCUAGCUAGAUGUCCACCCAUACUCAUCCAUGUGUGUUUAAAUAUUUGGGGGAUAUAUCAGUCCAUAUGGAAGAGACGGUUCAUGGAUGACCUAGGAAUAGCCAUCAGACUAUAACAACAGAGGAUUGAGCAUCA` gave a bound/input enrichment of 0.754 ratio.
`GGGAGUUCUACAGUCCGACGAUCUUCUCUUCUUCCGUGGUAGGAAGCCUCCCCAUGUACUCAUGCCUCGAGCUGUUUCUAAGCUAGCUGACUGCUGCACUGCUGUGAGCAGUAUCUUAACCCUCCUCUUUGCCAGGGGAGAAUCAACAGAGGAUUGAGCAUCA` gave a bound/input enrichment of 0.481 ratio.

Series 3 — technique: protein-binding microarray; form: double-stranded DNA, one strand shown; medium: in vitro; tested at: 250 nM; notes: 60-bp whole probe; with: salmon DNA 0.4 mg/ml; baseline: random background probes; direction: higher = stronger binding; shared flanks, not repeated: GCCTAGCAC … GTCTTGATTCGCTTGACGCTGCTG
Target: Interferon regulatory factor 5, full length, phosphomimetic (IRF5, Homo sapiens, UniProt Q13568-2, residues 1-514, K96S/S451D/S453D/S456D/S462D)
The log fluorescence of `TTAGGTCTCGGCCTCGGTTAGTGCTAG` is reported as -0.0989 z-score.
With `TCATTTTTATCAAATGTGACTGTGCTA` the log fluorescence was 0.777 z-score.
`TCATTTTAATTTTTAACACTGTGCTAG` gave a log fluorescence of 0.862 z-score.
`GACGAACTCGGGTATCGAGACGTGCTA` gave a log fluorescence of 0.303 z-score.
With `GACGATCTCAGTGTCGAGACGTGCTAG` the log fluorescence was -0.163 z-score.
For `TTAGGTCTCCTTTACCTTTAGTGCTAG`, the log fluorescence was -0.192 z-score.
With `GACGGTCTCCTAATCCTGACGTGCTAG` the log fluorescence was -0.239 z-score.
`TTAGGACTACTTTTCCTTTAGTGCTAG` gave a log fluorescence of 0.475 z-score.
With `TCATGAAGCGCTTCTCGAACTGTGCTA` the log fluorescence was 0.0427 z-score.
With `GACGGACTGCTTATACTGACGTGCTAG` the log fluorescence was -0.428 z-score.
The log fluorescence of `TTAGATTTCAGTCACGATTAGTGCTAG` is reported as 1.98 z-score.
`TCACCAATGCTTCTGGTACTGTGCTAG` has a log fluorescence of -0.0866 z-score.
`TTAGATATAAGACTGGATTAGTGCTAG` gave a log fluorescence of 0.0652 z-score.
`TGGCCTGTGCTATTTATAAGGGTGCTA` has a log fluorescence of -0.372 z-score.
With `TCAGATGCCTTTCTCTTACTGTGCTAG` the log fluorescence was 0.787 z-score.
For `GATGTTTTGAGTTTTCCTTCGTGCTAG`, the log fluorescence was 0.599 z-score.
With `GACGAAATCGGGTATCGAGACGTGCTA` the log fluorescence was 1.81 z-score.
The log fluorescence of `CTAAAACTCTTTATTTAAGCGTGCTAG` is reported as 0.482 z-score.
`ATGAGCCTCTGTTTTGAGCAGTGCTAG` has a log fluorescence of -0.261 z-score.

Series 4 — technique: protein binding microarray; form: double-stranded DNA, one strand shown; medium: in vitro; tested at: not given; baseline: not given; direction: higher = stronger binding
Target: Histone acetyltransferase KAT6A, winged helix 1, GST fusion (KAT6A, Homo sapiens, UniProt Q92794, residues 1-85)
Notes: 8-mer, flanks averaged, mean of 2 arrays, mostly near background
Residues (chain): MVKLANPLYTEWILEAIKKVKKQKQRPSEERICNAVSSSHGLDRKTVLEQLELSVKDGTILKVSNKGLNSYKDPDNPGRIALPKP
`CTCCCAGA` gave an E-score of -0.189.
`CCGCGACC` has an E-score of 0.339.
With `ATGTCCAA` the E-score was -0.113.
`AGTAAAGC` has an E-score of 0.00102.
With `CAAGGATA` the E-score was -0.155.
With `GCTAGAAC` the E-score was 0.0513.
For `CTGGCTTA`, the E-score was -0.23.
`ATAAACGC` gave an E-score of 0.173.
With `TCTGGGAA` the E-score was -0.228.
With `GCAGTCAC` the E-score was -0.104.
With `ACCCCTCT` the E-score was -0.138.
With `AACGGCCG` the E-score was 0.387.
`CTCATTTA` gave an E-score of -0.22.
The E-score of `ACGGAAAG` is reported as 0.237.
`GGTGTGAC` gave an E-score of 0.0234.
The E-score of `GCGGGGAC` is reported as 0.333.
With `CTTTGACC` the E-score was -0.0532.
`ACTCGGAT` has an E-score of 0.0737.
`CACGCCCG` has an E-score of 0.361.
`AACTTGCA` gave an E-score of -0.196.
`GATAATCC` gave an E-score of 0.00346.
The E-score of `CCGGCAGC` is reported as 0.389.
The E-score of `AATTCGTG` is reported as -0.227.
With `CATCGTCC` the E-score was -0.0996.
`CCGGAACC` gave an E-score of 0.187.

Some of these lines once more (series 3):
For `TTAGGTCTCCTTTACCTTTAGTGCTAG`, the log fluorescence was -0.192 z-score.
With `GACGGTCTCCTAATCCTGACGTGCTAG` the log fluorescence was -0.239 z-score.
`TTAGGACTACTTTTCCTTTAGTGCTAG` gave a log fluorescence of 0.475 z-score.
With `TCATGAAGCGCTTCTCGAACTGTGCTA` the log fluorescence was 0.0427 z-score.
With `GACGGACTGCTTATACTGACGTGCTAG` the log fluorescence was -0.428 z-score.
The log fluorescence of `TTAGATTTCAGTCACGATTAGTGCTAG` is reported as 1.98 z-score.
